Measurements from different studies.
Every numbered part comes from another study and shows a few of its results, in no order. Values joined by “and” are separate records of one study, mostly repeats; a detail may differ. Substitutions count along the parent as printed.
Chain of UniProt P00519 (whole entry, unmodified, looked up): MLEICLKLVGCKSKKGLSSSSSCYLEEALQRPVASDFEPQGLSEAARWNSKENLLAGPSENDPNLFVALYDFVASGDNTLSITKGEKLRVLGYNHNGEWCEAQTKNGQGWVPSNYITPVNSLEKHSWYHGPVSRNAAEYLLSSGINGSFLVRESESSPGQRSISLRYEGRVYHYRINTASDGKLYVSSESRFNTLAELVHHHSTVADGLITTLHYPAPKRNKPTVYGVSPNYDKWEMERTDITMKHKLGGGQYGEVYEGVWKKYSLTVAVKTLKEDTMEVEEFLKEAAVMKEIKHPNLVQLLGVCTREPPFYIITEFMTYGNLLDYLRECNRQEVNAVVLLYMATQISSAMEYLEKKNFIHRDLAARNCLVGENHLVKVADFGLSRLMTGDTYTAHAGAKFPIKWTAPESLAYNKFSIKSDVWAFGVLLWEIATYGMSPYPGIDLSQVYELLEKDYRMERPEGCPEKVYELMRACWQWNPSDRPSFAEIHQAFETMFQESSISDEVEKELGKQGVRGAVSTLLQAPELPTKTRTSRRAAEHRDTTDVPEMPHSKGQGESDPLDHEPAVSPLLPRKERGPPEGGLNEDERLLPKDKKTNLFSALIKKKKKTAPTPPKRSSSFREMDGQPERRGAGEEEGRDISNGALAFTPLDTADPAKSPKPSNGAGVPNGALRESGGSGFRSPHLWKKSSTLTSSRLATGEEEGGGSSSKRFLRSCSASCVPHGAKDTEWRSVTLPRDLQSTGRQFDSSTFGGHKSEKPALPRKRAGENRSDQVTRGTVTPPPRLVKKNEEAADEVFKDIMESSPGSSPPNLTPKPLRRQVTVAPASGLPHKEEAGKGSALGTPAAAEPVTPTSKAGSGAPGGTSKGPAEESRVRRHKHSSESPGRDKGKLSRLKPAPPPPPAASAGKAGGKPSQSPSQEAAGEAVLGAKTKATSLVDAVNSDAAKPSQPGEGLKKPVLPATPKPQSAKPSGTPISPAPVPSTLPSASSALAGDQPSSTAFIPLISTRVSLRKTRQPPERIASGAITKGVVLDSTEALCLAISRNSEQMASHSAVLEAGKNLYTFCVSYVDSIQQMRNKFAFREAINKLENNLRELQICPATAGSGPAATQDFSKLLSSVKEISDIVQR

Series 1 — Variant: R32I; method: DHFR PCA, deep sequencing; matrix: yeast; relative to: wild-type fitted maximum; direction: higher = stronger binding
Target: ABI1, truncated, D143A, DHFR fusion (Arabidopsis thaliana)
Setting: methotrexate growth selection, single substitutions
Parent: PYL1, truncated, DHFR fusion (Arabidopsis thaliana); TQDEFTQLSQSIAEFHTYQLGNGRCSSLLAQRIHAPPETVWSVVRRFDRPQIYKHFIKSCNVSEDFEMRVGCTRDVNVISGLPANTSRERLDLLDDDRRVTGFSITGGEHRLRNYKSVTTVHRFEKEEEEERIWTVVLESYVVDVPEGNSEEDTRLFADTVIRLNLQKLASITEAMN; partner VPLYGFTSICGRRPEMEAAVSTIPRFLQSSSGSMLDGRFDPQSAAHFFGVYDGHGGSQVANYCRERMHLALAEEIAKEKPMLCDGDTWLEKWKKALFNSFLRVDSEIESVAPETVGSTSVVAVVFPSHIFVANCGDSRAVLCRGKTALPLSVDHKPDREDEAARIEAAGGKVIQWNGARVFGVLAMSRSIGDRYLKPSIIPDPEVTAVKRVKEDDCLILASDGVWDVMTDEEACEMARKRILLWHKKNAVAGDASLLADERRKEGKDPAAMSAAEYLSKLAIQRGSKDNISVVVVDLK
added | relative binding score [%]
(+)-ABA 4.8 µM | 69
(+)-ABA 0.11 µM | 35.9
(+)-ABA 0 µM | 31.2
(+)-ABA 200 µM | 89.6
(+)-ABA 0.39 µM | 48.9
(+)-ABA 17 µM | 80.8

Series 2 — method: RNA Bind-n-Seq; molecule type: RNA; matrix: in vitro; tested at: 365 nM; relative to: no-protein control; direction: higher = stronger binding
Target: RNA binding protein fox-1 homolog 2, RRM domain, GST-SBP tag (RBFOX2, Homo sapiens, UniProt O43251-10, residues 100-194)
Setting: natural RNA segment, single round, ends assumed
Shared flanks, not repeated: GGGAGUUCUACAGUCCGACGAUC … UGGAAUUCUCGGGUGCCAA
Residues (chain): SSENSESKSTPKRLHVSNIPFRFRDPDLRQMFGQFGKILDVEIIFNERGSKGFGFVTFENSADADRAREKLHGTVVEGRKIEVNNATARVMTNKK
Strand | RBNS enrichment (R)
UCGCUUGGAAGUGGUGGCCAUGUGGCCGUUAUACAGCCUUUGCUGAUAUGGCCCUCAUCGUCGUGUAAUGUUUGUGCACCUCCCUGCUGUGCAGGCAGCUUGGAGUGCAG | 1.32
AUGCAGUUUUGUAGUGCUGGGGUUGGUUCAUGUCCUCUGGCACCCUGGCUUGUUGAAAGGUGGCUUUAGCUGUGUGCUGUGUACCUGCUUACGUGGCCUGCUGUCCUCUG | 0.655
CCUUGGCCUGUCUCAUCCCUGUGGGUCCCAGCUCAGCUCUGGCCACCCCGGGCUCUCUGCUGUACAUAUUCGAGACUAGUUUUUAUUCCUUGUGAAGAUGAUAUACUAUU | 0.29
UCUGUCAUGGAAAUAUUCACAAGAAAGCUGGCAUCUGUCCCAAUUCUCUCUCCUGUAAAUCCACGAGCACGGUCUGGAUCUGGAUGAAUAAAUAUAUUUCCUUAGGUGAU | 1.86
CACUGGUGAAUAGGGAUUAAUGAAUGGGAAGAGUUCAGUCAGACCAGUAAGCCCUUCUGGGUUUGAGUGUGUUCCCAUGUAGGAGGUAAAACCAAUUCUGGAAGCAUCUA | 1.13
CAGGACAUGGCAGGCUUCGCACCCUUUGUCAACCUACAGGUUGACUAACUUUCCUUGGGGUGGGAGCACAGCUGGACUGUGUAGCCCGGGCUUGACCCUGAGCCAUAGGG | 0.382
GCUAGUUCUCCUUCUUCUGUCUCCUCCUUACCCUGGCCCUGCACCCCUGUACUUAAGAGGGAGAGGUGGGAGGUGCUGUCUGGUAUCAUUUGCUGCCUCGCCAGUAGAGG | 0.64
AGUAUUUGUGAAAAGUAAUGAGCCAUAGUACCCAGUCAUGUUAAAUGAAUAUUAAAAGCAUGGAGAGGAAACAUGAGGAACAAUGAAUUUCAACAUAUGGCUUCAGAACA | 1

Further values, each from its own experiment
Structure (SMILES) | tested on | test | conditions | endpoint | value
O=C1CCC(N2Cc3cc(C4CCN(Cc5ccccc5)CC4)ccc3C2=O)C(=O)N1 (stereo not shown) | Jurkat |  | 100 nM, 24 h, added: CD3/CD28 beads, 1:4 | IL-2 level | 209 pg/mL and 135 pg/mL and 173 pg/mL
O=C(O)c1cc(-c2ccc(C3CCNCC3)cc2)c2ccc(-c3ccc(C(F)(F)F)cc3)cc2c1 | Tyrosine-protein kinase ABL1, phosphorylated (ABL1, Homo sapiens, UniProt P00519, E255K) | binding, competition with immobilised ligand | 1 µM | remaining binding | 87%

Repeated from above (series 1):
added | relative binding score [%]
(+)-ABA 4.8 µM | 69
(+)-ABA 0.11 µM | 35.9
